Measurements gathered from unrelated publications.
Numbered parts are unrelated; each lists some results of a single study.

Set 1 — method: aptamer microarray, sandwich; form: DNA with 2'F-ANA; matrix: in vitro; concentration: 200 nM; added: Cy3 exosite-II aptamer, 400 nM; direction: higher = stronger binding; oligonucleotide: GGTTGGTGTGGTTGG
Target: Prothrombin, mature alpha-thrombin (F2, Homo sapiens, UniProt P00734)
Setting: whole 15-mer aptamer, many near background
| Modification | mean fluorescence intensity [a.u.] |
| --- | --- |
| 2'F-ANA at 4 5 6 7 8 10 11 13 15 | 54 |
| 2'F-ANA at 1 2 5 8 11 13 15 | 52.5 |
| 2'F-ANA at 1 2 3 6 9 10 11 12 13 14 | 56.1 |
| 2'F-ANA at 3 5 7 8 9 10 11 12 13 15 | 67 |
| 2'F-ANA at 4 6 7 8 12 13 14 15 | 110 |
| 2'F-ANA at 1 2 5 7 8 10 11 12 13 15 | 48.3 |
| 2'F-ANA at 2 5 6 7 9 10 11 12 13 14 | 48.6 |
| 2'F-ANA at 2 3 4 5 7 8 9 10 11 13 15 | 53.3 |
| 2'F-ANA at 1 12 13 | 340 |
| 2'F-ANA at 1 4 5 6 7 8 9 12 13 14 | 44.3 |
| 2'F-ANA at 2 3 7 8 9 13 14 15 | 435 |
| 2'F-ANA at 2 7 14 15 | 142 |
| 2'F-ANA at 3 4 7 8 9 13 15 | 530 |
| 2'F-ANA at 1 4 5 6 7 9 10 12 13 15 | 48 |
| 2'F-ANA at 1 6 7 8 9 10 13 15 | 56.5 |
| 2'F-ANA at 2 4 9 10 11 14 15 | 64.6 |
| 2'F-ANA at 2 5 11 12 13 14 15 | 49.3 |
| 2'F-ANA at 1 2 3 4 7 8 9 12 13 14 15 | 74.2 |
| 2'F-ANA at 1 4 7 10 11 | 49.3 |
| 2'F-ANA at 1 2 4 5 7 10 11 15 | 44.7 |
| 2'F-ANA at 1 2 6 11 12 13 14 | 66.2 |
| 2'F-ANA at 1 2 3 4 5 6 7 8 9 10 14 15 | 46 |
| 2'F-ANA at 1 3 7 12 14 15 | 146 |
| 2'F-ANA at 1 3 4 7 11 13 | 175 |
| 2'F-ANA at 1 2 3 8 9 10 11 15 | 65.2 |

Set 2 — method: RNA Bind-n-Seq; form: RNA; matrix: in vitro; concentration: 365 nM; reference: no-protein control; direction: higher = stronger binding
Target: RNA binding protein fox-1 homolog 2, RRM domain, GST-SBP tag (RBFOX2, Homo sapiens, UniProt O43251-10, residues 100-194)
Setting: natural RNA segment, single round, ends assumed
All sequences stand within: GGGAGUUCUACAGUCCGACGAUC … UGGAAUUCUCGGGUGCCAA
Target sequence (chain): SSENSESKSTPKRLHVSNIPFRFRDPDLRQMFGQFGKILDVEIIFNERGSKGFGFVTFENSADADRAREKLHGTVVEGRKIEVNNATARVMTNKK
| Oligonucleotide | RBNS enrichment (R) |
| --- | --- |
| GCUGACAAGAUGAAUGGGCACUGCCUGCCCUUCUAGUGAAAAGGCUUGGCUAUGGCCCUGUGUGACUCCAGGUCCCAGGAACCUUGCCUUCGUCAUCUGUGGAUCCAUCC | 0.224 |
| UGCAGUACUGAGUAUGGUGCUUGCUCUUUCACUUAACUGAUAAGAGGGACAUGCCUACUAGGAGUUUUUAAUGAUGUGGUAUUUAAAGUAUUGUCUCUUAGUUAAGUAUG | 0.665 |
| GAAGUAAAUUCUGGCACAAAGCGUAAAAAUAUAACAGAAGAAAUAAUGUAAAAUACUAUCUUUUAUGUCUAAAGCCAUUUUAUAUUACUUUUCAAUAAAAAGAAUAUCAU | 0.601 |
| AAGAAGCUUCCUGCAAUGCCCAGGAGCAUCCCACAGGCAAUAGAGUACCAAUAUGGUAGACCUCUUUCACAGUCAAUCUCAGCCCUGGAAAUUAUGUUCUACUAUGCUCA | 0.303 |
| AUAAUUAUACUUGCACAUGAAAAUAAAAUAUAAAGUCAAUAAUAGUCCUUGUAGCCCAAUGGGAAUUGAUUCUGUUUAUUGUCUGUACCAUUUUGCUACCAGUUACAUUG | 0.73 |
| CGCCCCUGCUGCUGGCCUCGGGCAUGGCCCGCGACUGGCCCGACGCCCGCGGUAUCUGGCACAAUGACAAUAAGACCUUCCUGGUGUGGGUCAACGAGGAGGACCACCUG | 0.246 |
| UGCUGUGUUUUCUUCAGAGCAAGAAGGUUAUAUUUUUUAAAAUUUACUUAGUAAUGCACAUUCAAAACACACAUCAAGUCUUCAGGAUAAAGUUCAAAACCGCUGUCAUG | 0.353 |
| CGGCCUGGCAUGCAGCUUGUCCUUGCUCCUGGAACCUGGCAGGCCCUGCCCAGCCAGCCAUCGGAAGAGAGGGCUGAGCCAUGGGGGUUUGGGGCUAAGAAGUUCACCAG | 2.67 |
| AGUUCGUUGAGACUUAGUGACCAUUUGGCAUCAAGUUAACAUCACACAAUAGGAAACACCACUUCCACAAGUCUCAAGCCUCAGUGCUAAAGUACUACUGAAAAGGAACU | 0.219 |
| AAGAAAAGAUUUGGUUGCCAUAGUCAUAAGCAAUGAUACAUGAAACCAAUGAAAGACAGUACAUGUAAUAAUAUUUUCCUCAGUACAAUUUUGCUGGCCUUAACUGGUAU | 0.349 |
| UCGGGAUGUUUCAGCUCACACAUCCUUGAGUGACUUCCCAUAUGUGUGUGGGGCUGAAGCGGCUUCUUUCCGCUGAACUUUUAUUUCCAUUUCAGCCUCGUGGCUUCUCU | 0.253 |
| ACAGGGCAUAUCUUUGUUAAAGUAGAUUUUUCAAUGUUUUACAGAAUUACAUUUUCAAAAAAAGGUUUUUAUAAUGAAGUUGUUUAUUAAAAACUUCUGAAUGAUGUGUU | 1.69 |

Set 3 — method: RNA Bind-n-Seq; form: RNA; matrix: in vitro; concentration: 200 nM; setting: whole 134-nt RNA, ends assumed; added: 150 mM KCl; reference: input library; direction: higher = stronger binding
Target: Ras GTPase-activating protein-binding protein 1, full length (G3BP1, Homo sapiens, UniProt Q13283)
Chain of UniProt Q13283 (whole entry, looked up): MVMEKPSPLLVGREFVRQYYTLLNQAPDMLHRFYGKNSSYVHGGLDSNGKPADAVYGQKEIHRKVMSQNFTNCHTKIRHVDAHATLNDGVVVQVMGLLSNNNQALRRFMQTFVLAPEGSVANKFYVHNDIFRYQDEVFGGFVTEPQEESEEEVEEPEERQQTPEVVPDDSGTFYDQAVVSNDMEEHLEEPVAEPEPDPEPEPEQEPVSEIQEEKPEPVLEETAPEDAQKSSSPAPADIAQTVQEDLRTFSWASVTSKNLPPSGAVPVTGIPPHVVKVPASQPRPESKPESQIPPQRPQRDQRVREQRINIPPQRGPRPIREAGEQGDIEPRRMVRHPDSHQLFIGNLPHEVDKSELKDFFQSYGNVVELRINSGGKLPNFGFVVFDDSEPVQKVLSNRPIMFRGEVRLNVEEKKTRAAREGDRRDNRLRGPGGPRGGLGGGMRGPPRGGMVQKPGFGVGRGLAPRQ
All sequences stand within: GGGAGUUCUACAGUCCGACGAUC … UGGAAUUCUCGGGUGUCAAGG
| Oligonucleotide | log2 enrichment |
| --- | --- |
| UCCUCAAGUCCUGUGCUACACAUCGUAUGUACCGAAUCGGAGGGAGGGGAGGAAAGUAUUAUGUUACGCCGUUCGGAUCUGCACUUCCAG | 0.373 |
| CACAGACAACACGCACCCACACAGUCACAGAGGGAAGGGGUUGGGAUGGGGACAGGGUGCACAGCAGGGCGGGGUAGGACCCCAGCCCCU | 1.86 |
| GUCCUGUGCUACACAUCGUAUGUACCGAAUCGGGGAAAAAGGGAAAAAGGGGAAAAAGGAAAGUAUUAUGUUACGCCGUUCGGAUCUGCA | -0.36 |
| UCCUGUGCUACACAUCGUAUGUACCGAAUCGGGGUUUUUGGGGUUUUUGGGGUUUUUGGGAAAGUAUUAUGUUACGCCGUUCGGAUCUGC | 0.3 |
| CAAGUCCUGUGCUACACAUCGUAUGUACCGAAUCGGAAAGGGGAAAGGGGAAAGGGAAAGUAUUAUGUUACGCCGUUCGGAUCUGCACUU | 0.0708 |
| CACAGACAACACGCACCCCCACAGACACAGAGGGAAGGGGUUGGGAUGGGGACAGGGUGCACAGCAGGGCGGGGUAGGACCCCAGCCCCU | 2.11 |
| UCCUGUGCUACACAUCGUAUGUACCGAAUCGGGGUUUUUUUGGGGAAAAAGGGGUGGGGAAAGUAUUAUGUUACGCCGUUCGGAUCUGCA | 0.616 |
| CAAGUCCUGUGCUACACAUCGUAUGUACCGAAUCGGGUGGGUUUGGGAAAAAGGGAAAGUAUUAUGUUACGCCGUUCGGAUCUGCACUUC | 0.726 |
| UGGGAGGUGGAUUUUGUUUAUAUUUUUAGCUCAUUUCCAGGGGUGGGAAUUUUUUUUUAAUAUGUGUCAUGAAUAAAGUUGUUUUUGAAA | 0.161 |
| CUCAAGUCCUGUGCUACACAUCGUAUGUACCGAAUCGGGCCGGCCGGGGCCGGAAAGUAUUAUGUUACGCCGUUCGGAUCUGCACUUCCA | -0.375 |
| UAAGUUUAGAGGAGGAUCUGAUGGAUAUGGCAGUGGACGUGGAUUUGGGGAUGGCUAUAAUGGGUAUGGAGGAGGACCUGGAGGUGGCAA | 0.278 |
| AAGUCCUGUGCUACACAUCGUAUGUACCGAAUCGGGAAAGGGAAAAAAAGGGAGGGAAAGUAUUAUGUUACGCCGUUCGGAUCUGCACUU | 0.219 |
| ACCAUGCAGGUGGGCAUCUUUGGGAAGUGGGGCAAGGGGGGGAUAGGGAGGGGGGUAACACUUUGGGAACAGGUAGUCCCAGGUCGUUUC | 1.18 |
| CACAGACAACACGCACCCACACAGACACAGAGGGAAGGGGUUGCGAUGGGGACAGGGUGCACAGCAGGGCGGGGUAGGACCCCAGCCCCU | 1.48 |

Set 4 — method: protein binding microarray; form: double-stranded DNA, one strand shown; matrix: in vitro; concentration: not given; reference: not given; direction: higher = stronger binding
Target: Histone acetyltransferase KAT6A, winged helix 1, GST fusion (KAT6A, Homo sapiens, UniProt Q92794, residues 1-85)
Setting: 8-mer, flanks averaged, mean of 2 arrays, mostly near background
Construct (chain): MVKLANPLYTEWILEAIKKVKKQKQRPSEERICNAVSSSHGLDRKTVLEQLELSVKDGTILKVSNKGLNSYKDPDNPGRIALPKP
| Oligonucleotide | E-score |
| --- | --- |
| ATACCTGC | -0.0882 |
| GCGTTCCA | 0.0995 |
| AGTAGAAC | -0.215 |
| GGAACGAA | -0.0318 |
| GTCGGGGA | 0.199 |
| GGGCCCAA | -0.204 |
| ACTGCTTG | -0.214 |
| CATAACCC | -0.0623 |
| TCCAACGA | -0.235 |
| CCGCAGCA | 0.162 |
| GTCTCATA | -0.128 |
| ACCCGTAC | 0.334 |
| TATCATCA | -0.00957 |
| ATGAGAGC | -0.226 |
| ATCTGTCA | -0.0856 |
| CTCTAAGA | -0.00742 |
| AAGATTAT | -0.15 |
| AAGGATCC | -0.0329 |
| AGTGTAAA | -0.0707 |

Further values, each from its own experiment — method: two-hybrid; reference: out of 4 tests; direction: higher = firmer interaction
T1: itself; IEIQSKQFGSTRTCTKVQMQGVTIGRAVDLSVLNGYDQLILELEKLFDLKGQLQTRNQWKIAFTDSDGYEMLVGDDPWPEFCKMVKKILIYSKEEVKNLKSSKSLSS
T2: itself; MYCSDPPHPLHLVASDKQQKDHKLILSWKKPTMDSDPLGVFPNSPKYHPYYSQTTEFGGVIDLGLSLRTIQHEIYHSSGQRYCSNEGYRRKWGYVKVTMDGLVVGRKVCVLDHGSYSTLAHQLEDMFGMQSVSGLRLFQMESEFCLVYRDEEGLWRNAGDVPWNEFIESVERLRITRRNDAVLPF
T3: itself; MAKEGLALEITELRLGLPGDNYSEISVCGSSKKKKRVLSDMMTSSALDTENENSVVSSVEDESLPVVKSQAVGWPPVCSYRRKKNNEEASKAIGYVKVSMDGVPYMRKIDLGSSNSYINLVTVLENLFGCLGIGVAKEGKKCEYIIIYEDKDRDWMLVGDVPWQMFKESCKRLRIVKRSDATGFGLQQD
T4: itself; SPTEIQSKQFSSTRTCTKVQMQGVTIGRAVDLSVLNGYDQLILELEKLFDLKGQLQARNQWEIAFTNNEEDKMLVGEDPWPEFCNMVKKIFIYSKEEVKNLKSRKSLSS
B1: ARF20 484-590 (Arabidopsis thaliana, UniProt Q9C7I9); chain IEIQSKQFGSTRTCTKVQMQGVTIGRAVDLSVLNGYDQLILELEKLFDLKGQLQTRNQWKIAFTDSDGYEMLVGDDPWPEFCKMVKKILIYSKEEVKNLKSSKSLSS
B2: IAA34 (Arabidopsis thaliana, UniProt Q9C5X0); chain MYCSDPPHPLHLVASDKQQKDHKLILSWKKPTMDSDPLGVFPNSPKYHPYYSQTTEFGGVIDLGLSLRTIQHEIYHSSGQRYCSNEGYRRKWGYVKVTMDGLVVGRKVCVLDHGSYSTLAHQLEDMFGMQSVSGLRLFQMESEFCLVYRDEEGLWRNAGDVPWNEFIESVERLRITRRNDAVLPF
B3: IAA6 (Arabidopsis thaliana, UniProt Q38824); chain MAKEGLALEITELRLGLPGDNYSEISVCGSSKKKKRVLSDMMTSSALDTENENSVVSSVEDESLPVVKSQAVGWPPVCSYRRKKNNEEASKAIGYVKVSMDGVPYMRKIDLGSSNSYINLVTVLENLFGCLGIGVAKEGKKCEYIIIYEDKDRDWMLVGDVPWQMFKESCKRLRIVKRSDATGFGLQQD
B4: ARF14 497-605 (Arabidopsis thaliana, UniProt Q9LQE8); chain SPTEIQSKQFSSTRTCTKVQMQGVTIGRAVDLSVLNGYDQLILELEKLFDLKGQLQARNQWEIAFTNNEEDKMLVGEDPWPEFCNMVKKIFIYSKEEVKNLKSRKSLSS
| Molecule | partner | positive tests |
| --- | --- | --- |
| B1 (ARF20 484-590) | T1, itself | 0 |
| B2 (IAA34) | T2, itself | 2 |
| B3 (IAA6) | T3, itself | 0 |
| B4 (ARF14 497-605) | T4, itself | 0 |

Repeated from above (set 1):
| Modification | mean fluorescence intensity [a.u.] |
| --- | --- |
| 2'F-ANA at 1 2 5 7 8 10 11 12 13 15 | 48.3 |
| 2'F-ANA at 2 5 6 7 9 10 11 12 13 14 | 48.6 |
| 2'F-ANA at 2 3 4 5 7 8 9 10 11 13 15 | 53.3 |
| 2'F-ANA at 1 12 13 | 340 |
